Published values from different studies.
Compare with care: the assays were run in different laboratories. ± marks the error that the study gave.
Cell line: SK-OV-3

SMILES | assay | conditions | IC50
COc1ccc2cc([C@H](C)C(=O)[O][Pt-2]34([O]C(=O)[C@@H](C)c5ccc6cc(OC)ccc6c5)([NH2+][C@@H]5CCCC[C@H]5[NH2+]3)[O]C(=O)C(=O)[O]4)ccc2c1 | cell growth, MTT | 48 h | 11.3 ± 0.8 µM
Clc1nc2cc3c(cc2cc1-c1nc2ccccc2[nH]1)OCO3 | cell growth or viability, MTT | 48 h | 41.6 µM
COc1ccc2cc([C@H](C)C(=O)[O][Pt]([NH2])([NH2])([Cl])([Cl])[O]C(=O)[C@@H](C)c3ccc4cc(OC)ccc4c3)ccc2c1 | cell growth, MTT | 72 h | 0.11 ± 0.02 µM
C=CC(=O)N1CCC(Cc2ccc(C(=O)N3CCN(c4nc(-c5cnc(N)nc5C(F)F)nc(N5CCOCC5)n4)CC3)cc2)CC1 | Akt phosphorylation, inhibitor, in-cell western, measured: Akt pSer473 | 1 h | 0.054 µM
Clc1nc2cc3c(cc2cc1-c1nc2cc(Br)ccc2[nH]1)OCO3 | cell growth or viability, MTT | 48 h | > 100 µM
C=CCc1ccc(OCc2nnc(SCC(=O)Nc3ccc(Br)cc3)o2)c(OC)c1 | cell growth or viability, MTT | 72 h | 14.1 µM
Cc1ccc2nc(Cl)c(-c3nc4cc(F)ccc4[nH]3)cc2c1 | cell growth or viability, MTT | 48 h | > 100 µM
COc1ccc(-c2nnc(-c3ccccn3)[nH]2)cc1OC.COc1ccc(-c2nnc(-c3ccccn3)[nH]2)cc1OC.[Cu+2].[O-][Cl+3]([O-])([O-])[O-].[O-][Cl+3]([O-])([O-])[O-] | cell growth or viability, MTT | 24 h | 86.9 µM
C=CCc1ccc(OCc2nnc(SCC(=O)Nc3ccccc3C(=O)OC)o2)c(OC)c1 | cell growth or viability, MTT | 72 h | 8.74 µM
CC(C)(C)c1cc2c(O)c(c1)Cc1cc(C(C)(C)C)cc(c1OCC(=O)NCc1cccnc1)Cc1cc(C(C)(C)C)cc(c1O)Cc1cc(C(C)(C)C)cc(c1OCC(=O)NCc1cccnc1)COC2 | cell growth or viability, MTT | 72 h | 5.8 µM
O=S(=O)([O-])[O-].[Cu+2].c1ccc(-c2nnc(-c3ccc4c(c3)OCO4)[nH]2)nc1 | cell growth or viability, MTT | 24 h | 6.11 µM
C=CCc1ccc(OCc2nnc(SCC(=O)Nc3ccc(F)cc3F)o2)c(OC)c1 | cell growth or viability, MTT | 72 h | 3.36 µM
O=C(Cc1ccc2ccccc2c1)N[C@H](Cc1ccccc1)C(=O)N[C@H](Cc1ccc(O)cc1)C(=O)N[C@H](Cc1ccccc1)C(=O)N[C@H](Cc1ccc(OP(=O)(O)O)cc1)C(=O)O | cell growth or viability, MTT | – | 407 µg/mL
C=CCc1ccc(OCc2nnc(SCC(=O)Nc3cccc(Br)c3)o2)c(OC)c1 | cell growth or viability, MTT | 72 h | 26.3 µM
Cc1cc2nc(-c3cc4ccccc4nc3Cl)[nH]c2cc1C | cell growth or viability, MTT | 48 h | 9.4 µM
CC(C)(C)c1cc2c(O)c(c1)Cc1cc(C(C)(C)C)cc(c1OCC(=O)Nc1cncc3ccccc13)Cc1cc(C(C)(C)C)cc(c1O)Cc1cc(C(C)(C)C)cc(c1OCC(=O)Nc1cncc3ccccc13)COC2 | cell growth or viability, MTT | 72 h | 3.5 µM
Clc1ccc2[nH]c(-c3cc4ccccc4nc3Cl)nc2c1 | cell growth or viability, MTT | 48 h | 10.4 µM
CCCCCCCCCCCCCCCCC1CC(=O)NCCCN(C)CCCCN(C)CCCN1C (centres unmarked) | cell growth or viability, neutral red | 48 h | 2.2 µg/mL
Clc1ccc2[nH]c(-c3cc4cc5c(cc4nc3Cl)OCO5)nc2c1 | cell growth or viability, MTT | 48 h | > 100 µM
Oc1ccc(Br)cc1C=NNC(=S)Nc1ccccc1 | cell growth or viability, MTT | 72 h | 0.9 µM

For quick reference, copied from above:
SMILES | assay | conditions | IC50
CCCCCCCCCCCCCCCCC1CC(=O)NCCCN(C)CCCCN(C)CCCN1C (centres unmarked) | cell growth or viability, neutral red | 48 h | 2.2 µg/mL
Clc1ccc2[nH]c(-c3cc4cc5c(cc4nc3Cl)OCO5)nc2c1 | cell growth or viability, MTT | 48 h | > 100 µM
Oc1ccc(Br)cc1C=NNC(=S)Nc1ccccc1 | cell growth or viability, MTT | 72 h | 0.9 µM
